Measured values pooled from the literature.
A part holds a random share of what one study measured. Positions count from the first letter of the parent shown.

Series 1
Target: RING finger protein unkempt homolog, zinc fingers 1-6, GST-SBP tag (UNK, Homo sapiens, UniProt Q9C0B0, residues 30-357)
UniProt Q9C0B0, sequence (30-357, looked up): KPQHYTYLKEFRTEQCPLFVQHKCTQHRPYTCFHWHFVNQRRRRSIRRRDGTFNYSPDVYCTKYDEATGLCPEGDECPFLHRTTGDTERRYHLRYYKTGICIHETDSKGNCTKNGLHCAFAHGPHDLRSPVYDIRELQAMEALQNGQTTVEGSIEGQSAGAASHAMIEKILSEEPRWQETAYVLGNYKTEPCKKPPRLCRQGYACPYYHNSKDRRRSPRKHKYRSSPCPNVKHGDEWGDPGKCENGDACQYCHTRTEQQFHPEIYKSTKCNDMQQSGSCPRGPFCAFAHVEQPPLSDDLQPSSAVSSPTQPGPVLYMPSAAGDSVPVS
Method: RNA Bind-n-Seq
Molecule type: RNA
Medium: in vitro
Concentration: not given
Setting: RNA with constant flanks, human and mouse sites, ends assumed
Relative to: input RNA pool
Direction: higher = stronger binding
| Sequence | bound/input enrichment |
| --- | --- |
| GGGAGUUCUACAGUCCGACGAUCGAGAAGACAGGGCACAGUGGUACGCUGGAUCCCAAGGUGACUGGUUGUUUAAUCGUGUGCAUAGAACGAGCCACUCGCUUGGUGAAGUCACAACAGAGUGCAGGCAAAGAGUAUGUGGGGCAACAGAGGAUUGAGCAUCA | 0.328 ratio |
| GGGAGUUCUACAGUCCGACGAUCUUGAAGUACAAUCAAGCUACACAGACCUUCCACCAGUGGCGAGAUGCUAGACAGGUGUAUGGUCUCAACUUUGGCAGCAAAGAGGAUGCCAAUGUCUUCGCAAGUGCCAUGAUGCAUGCCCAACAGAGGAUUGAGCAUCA | 0.13 ratio |
| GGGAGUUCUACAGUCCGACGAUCUCCUUCCCACAUCACAGGGCUACCUUGAGACUCUCCGAGAAGUUUAUCCUUCUCCUCAUCCUUAGUGCCUUCAUCACCCUGUGUUUUGGGGCAUUCUUCUUCCUUCCAGACUCUUCAAAACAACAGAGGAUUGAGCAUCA | 0.407 ratio |
| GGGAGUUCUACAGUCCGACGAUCUCCCUGCUUUGGACCCUGCUACAGAAUGCCUCUCCUGCGUGUCCCACACCAAGCCCUGCUGUGUGUCCCCGUCCAAGCUCUCCUGCGUGUCCCCCUCCAAGCCCCGCUGUGUGUCCCCCUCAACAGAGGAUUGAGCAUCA | 0.575 ratio |
| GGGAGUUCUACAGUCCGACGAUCUGCCGGCUCUGUUUUUCUGUAAAUAAAUUUGCAUAUUUUGUAGGACUUUUAAUUGUAAUGAUAGAGAAAAAAACAAGGAAAACUAUUUAAUGAAAGCACGAUAUUUAUCUUUGGUAAAUGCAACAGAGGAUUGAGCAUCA | 2.05 ratio |
| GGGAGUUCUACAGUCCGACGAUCCCCAGUUUCAUCGGACUCCCUGGCCCCAUCCCGUCCCCGCCCUGGCCCCUUUGUGCCCCUUCUCAUCGUUUUCUCCCUCCUUCCCGGGCUUGGCGUCCCUUCUCCACCCCUAACUCCUUCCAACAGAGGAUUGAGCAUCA | 1.16 ratio |
| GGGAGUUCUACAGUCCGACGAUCAUUGGGACCAGCUCUCUGAAUAGAAAUAGUAGUAAAAAAACCAAGCAAAAUGAUAUUUGUAUAGAAAAAACAGAAGCUAAAUCAUGUAAAGUAAACGCUGCCAGUGUUCCAGGCCCUAAACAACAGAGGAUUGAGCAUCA | 55.5 ratio |
| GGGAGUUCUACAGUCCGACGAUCGCUUCGGUGCUGAUGGGUCUUGUUCUUAUCUGCGUCUGCUCGAAAACCCAUAGCUUGAAAGGCCUGGCCAGGGGAGGAGCACAGAUAUUUUCCUGUAUAAUUCCAGAAUGUCUUCAGAGACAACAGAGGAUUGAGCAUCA | 0.149 ratio |
| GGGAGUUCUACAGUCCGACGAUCAUGUCAGUGAGGCGAGAACUCUGUGCUGUGAUGGUGUUCGCAGUGGUGGAAAGAGCAGGGACCAUAGUGUUAAAUGAUGGUGAAGAGCUGGACUCCUGGUCAGUGAUUCUCAAUGGAUCUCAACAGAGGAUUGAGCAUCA | 0.21 ratio |
| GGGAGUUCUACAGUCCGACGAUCUAUGGAAGAAAAGCUACUUGGAUAGGUGCAAGUGGGGACCAAACUUUUUUACGAAUUGAUGAAGCACUUAUUAAUUCUCAUGUACUUGCUACAUCAGAAAUUUUUGCCAGUAAACACAUACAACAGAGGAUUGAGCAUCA | 0.274 ratio |
| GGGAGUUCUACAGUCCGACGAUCGCUGAAUUUGCUGAGUUAAAGACACAGAUAGAGAGACUGAGACUAGAUUACCAGCACGAAAUAGAAAGUUUACAGAGUAAACAGGACUCUGAGCGGUCUGCUCAUGCUAAAGAGAUGGAGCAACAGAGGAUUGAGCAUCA | 0.869 ratio |

Series 2
Target: CCNE1, cyclin fold, Cln2 fusion (human)
Method: yeast growth competition, sequencing
Medium: yeast
Setting: strong parent motif
Relative to: not given
Direction: higher = stronger binding
Starting sequence: PKN2 docking peptide (human); VSAVRKLDFSDTM
| Substitution | normalised enrichment score |
| --- | --- |
| V4R | 5.56 |
| K6S | 2.74 |
| D11H | 4.21 |
| K6R | 5.94 |
| R5T | 0.328 |
| V4N | 2.26 |
| S10H | 4.74 |

Series 3
Target: Sal-like protein 4, full length isoform B (SALL4, Homo sapiens, UniProt Q9UJQ4-2, residues 1-616)
Method: universal PBM
Molecule type: double-stranded DNA, one strand shown
Medium: in vitro
Concentration: not given
Setting: 8-mer, flanks averaged, mean of replicates
Direction: higher = stronger binding
| Sequence | E-score |
| --- | --- |
| AACTATCC | -0.0646 |
| GACCAAAC | -0.14 |
| CCTTAAAA | 0.245 |
| ACTCTACC | -0.0226 |
| TTAACTAA | 0.265 |
| CGTCCTCC | -0.147 |
| AAGGCATG | 0.0469 |
| AACGGTGT | -0.0554 |

Single results of other studies
| Molecule | target | test | test system | conditions | scale | endpoint | result |
| --- | --- | --- | --- | --- | --- | --- | --- |
| PhoQ, residues 284 288 289 292 302 303 SQSLSM | PhoP, residues 12 14 15 18 19 NHFIF (Escherichia coli, UniProt P23836) | Sort-seq, measured: YFP reporter | E. coli | PhoQ-PhoP variant library, with: 10 µM Mg2+ | relative to: high Mg2+ state, higher = stronger signaling | fold induction | 2.13 |
